Assay results of several laboratories.
Compare with care: the assays were run in different laboratories. Numbers after ± are the reported error. ≈ marks a conversion by molar mass, not a printed value.

Structure (SMILES)	organism	assay	test system	setting	scale	quantity	value
Cc1ccc(N(CCc2nnc(S)o2)S(=O)(=O)c2ccc(C)cc2)cc1	Colletotrichum capsici	cup plate method		100 µg/mL	relative to: fluconazole	relative inhibition	224%
Cc1ccc(NCC(=O)Nc2ccc(F)c(Cl)c2)cc1S(=O)(=O)N1CCOCC1	Plasmodium cynomolgi		liver-stage large forms	10 µM		antiplasmodial activity	no effect
C#CCN1CCc2c(n(C(=C)C(=O)OC)c3ccccc23)C(C(=O)OC)C1 (stereo not shown)	hepatitis B virus	rcDNA level	HuH7-NTCP	5 µM		inhibition	> 60%
CC(=O)[O-].O.O.O.O.[Co+2].[O-]c1ccc(Br)cc1C=NCCN1CCOCC1	Bacillus cereus			20 µL of 100 µM per disc		inhibition zone diameter	15 mm
COc1ccc(-c2nc(-c3ccccc3OC)[nH]c2-c2ccc(OC)cc2)cc1	Schistosoma mansoni		adult male worms	10 µM		worm killing	0%
C#CCN1CCc2c3n(c4ccccc24)C(=O)C(=C)C3(C(=O)OC)C1 (stereo not shown)	hepatitis B virus	cccDNA level, qPCR	HuH7-NTCP	5 µM		inhibition	> 60%
Fc1ccc(Cn2c3ccccc3c3ccncc32)cc1	Echinococcus granulosus	eosin staining	sensu stricto protoscoleces	40 µM, 48 h, 10% fetal bovine serum		viability	93.1 ± 1.01%
CN[C@H](CC(C)C)C(=O)N[C@H]1C(=O)N[C@@H](CC(N)=O)C(=O)N[C@H]2C(=O)N[C@H]3C(=O)N[C@H](C(=O)N[C@H](C(=O)O)c4cc(O)cc(O)c4-c4cc3ccc4O)[C@H](O)c3ccc(c(Cl)c3)Oc3cc2cc(c3O[C@@H]2O[C@H](CO)[C@@H](O)[C@H](O)[C@H]2O[C@H]2C[C@](C)(NCc3ccc(C(=O)OCCCCCCN(Cc4ccccn4)Cc4ccccn4)cc3)[C@H](O)[C@H](C)O2)Oc2ccc(cc2Cl)[C@H]1O	Bacillus subtilis	protein synthesis, measured: YceC	168	concentration not given, 10 min, at peak effective concentration	relative to: untreated	regulation factor	3.4 ± 1
CC(C)C[C@H](NC(=O)OCc1ccccc1)C(=O)N[C@@H](C[C@H]1CCNC1=O)C(=O)C(=O)NC1CC1	human rhinovirus 1B	viral replication	WI-38	37 °C		EC50	250 ± 210 nM
CCOC(=O)/C=C/c1ccc(OCCNS(=O)(=O)c2ccc(C)cc2)c(OC)c1	tobacco mosaic virus	half-leaf method	tobacco	500 µg/mL		curative activity	57.9 ± 10.3%
COc1ccc(NC(=O)N2CCCN3CCC(c4ccc(C#Cc5ccncc5)cc4)C3C2)cc1 (stereo not shown)	Toxoplasma gondii		HFF, RH (type I)	concentration not given		growth inhibition	inactive
CC(C)C[C@H](NC(=O)OCc1cccc(Cl)c1)C(=O)N[C@H](C=O)C[C@H]1CCNC1=O	human rhinovirus 1B	viral replication	WI-38	37 °C		EC50	750 ± 210 nM
Fc1ccc2c(c1)c1nc3ccc(Br)cc3c-1cn2Cc1cn(-c2ccccc2I)nn1	Giardia duodenalis trophozoites	UHPLC-Q-TOF-MS, measured: PI(O-18:0/0:0)		IC50, 0.2033 h	relative to: 0.25% DMSO	fold change	-73.9
COc1ccc(NC(=O)N2CCCN3CC[C@H](c4ccc(/C=C/c5ccccc5)cc4)[C@@H]3C2)cc1	Toxoplasma gondii		HFF, RH (type I)	concentration not given		growth inhibition	inactive
N=C(NO)NN=Cc1nccc2c([N+](=O)[O-])cccc12	human mastadenovirus C	plaque reduction	A549, McEwen			inhibitory concentration	< 100 µM
CCN(CC)CC#CCNc1ccnc2cc(Cl)ccc12	Plasmodium falciparum	schizont maturation	field isolates	Albumax medium	relative to: field isolates over 3D7	IC50 ratio	~2 fold
CCc1cccc2c(C(=O)COC(=O)C34CC5CC(CC(Br)(C5)C3)C4)c[nH]c12	Oryza sativa		Nipponbare	1 µM, 40-day-old plants		tiller number	increased
O=C(Nc1ccc2c(c1)CN(c1ccc(Cl)cc1)C2=O)N1CC[C@H](O)C1	Trypanosoma brucei brucei	cell growth, resazurin	Squib 427	concentration not given, 3 days		growth inhibition	inactive
C[C@@H]1C[C@H](Nc2ccccc2)c2cc(F)ccc2N1C(=O)c1ccc(Cl)c(F)c1	Aedes albopictus			1 µM, second-instar larvae		logit mortality	1.06
CC[C@@H](C)[C@@H](NC(=O)[C@@H](C)NC(=O)[C@@H](CCCCN)NC(=O)[C@@H](CC(C)C)NC(=O)[C@@H](CC(C)C)NC(=O)[C@H](NC(=O)[C@@H](CCCCN)NC(=O)[C@@H](CC(C)C)NC(=O)[C@@H](C)NC(=O)[C@@H](CCCCN)NC(=O)[C@@H](CCCCN)NC(=O)[C@@H](CCCCN)NC(=O)[C@@H](C)NC(=O)[C@@H](CCCCN)NC(=O)[C@@H](CO)NC(=O)[C@@H](Cc1ccccc1)NC(=O)[C@H](NC(=O)[C@@H](CCCCN)NC(=O)[C@@H](CC(C)C)NC(=O)[C@@H](Cc1ccccc1)NC(=O)[C@@H](CO)NC(=O)[C@@H](CCCCN)NC(=O)[C@@H](Cc1c[nH]c2ccccc12)NC(=O)[C@@H](CCCCN)NC(C)=O)[C@H](C)O)[C@H](C)O)C(=O)N[C@H](CO)C(=O)N[C@H](CCCCN)C(N)=O	Acinetobacter baumannii		11 isolates			MIC geometric mean	0.8 µM (≈ 2.45 µg/mL)
O=C(C1CCN(c2nnnn2-c2ccccc2)CC1)N1CCCc2ccccc21	Plasmodium falciparum	parasite growth, SYBR Green	3D7	72 h, blood stage		IC50	1800 nM
O=C[C@H](C[C@H]1CCNC1=O)NC(=O)[C@H](Cc1ccccc1)NC(=O)OCc1ccccc1	human rhinovirus 1B	viral replication	WI-38	37 °C		EC50	950 ± 490 nM
Cc1ccc(S(=O)(=O)N(CCc2nnc(S)o2)c2ccc(Cl)cc2)cc1	Colletotrichum capsici	cup plate method		100 µg/mL	relative to: fluconazole	relative inhibition	206%
Cc1ncc([N+](=O)[O-])n1CCOCc1nnc(SCC(=O)c2ccc(Br)cc2)o1	Enterobacter cloacae		DMSO	60 µg/mL, 24 h, 37 °C		inhibition zone diameter	≥ 20 mm
COc1ccc(NC(=O)N2CCCN3CCC(c4ccc(C#CC5CCCC5)cc4)C3C2)cc1 (stereo not shown)	Toxoplasma gondii	parasite growth, luciferase	HFF, RH type I luciferase			EC90	1210 nM
C[C@@H]1C[C@H](Nc2ccccc2)c2cc(F)ccc2N1C(=O)c1ccccc1	Aedes albopictus			1 µM, second-instar larvae		logit mortality	0.11
CC(=O)OC[C@H]1O[C@@H]([Se]c2ccccc2)[C@H](OC(C)=O)[C@@H](OC(C)=O)[C@@H]1OC(C)=O	Trypanosoma brucei brucei	parasite viability	bloodstream form	5 µM		activity	inactive
CCCCCCCCC1=C(CCCCCCCC(=O)OC)C1	Toxoplasma gondii		Vero, RH		relative to: CC50 over EC50	selectivity index	> 3.3

Structure (SMILES)	organism	assay	test system	setting	scale	quantity	value
COc1cc(OC)c2c(c1)C(=O)c1cc3oc(=O)cc(C)c3c(O)c1C2=O	Bacillus cereus		MTCC 1306	100 µg/disc		zone of inhibition	< 8 mm
O=C(Nc1ccccc1)N1CCCN2CCC(c3ccc(C#Cc4ccncc4)cc3)C2C1 (stereo not shown)	Toxoplasma gondii	parasite growth	HFF, RH type I luciferase			EC90	4880 nM
COC1C=COC2(C)Oc3c(C)c(O)c4c(c3C2=O)C2=NC3(CCN(CC(C)C)CC3)NC2=C(NC(=O)C(C)=CC=CC(C)C(O)C(C)C(O)C(C)C(OC(=O)Nc2cnccn2)C1C)C4=O (stereo not shown)	Mycobacteroides abscessus		ATCC 19977	1:1 CAMHB:human serum		IC50	45 nM
O=C(Nc1ccccc1Nc1ccccc1)c1nccnc1Cl	Sclerotinia sclerotiorum	microbial growth		50 µg/mL		inhibition	32.9%
O=C(N[C@@H](CC1CCCCC1)C(=O)N[C@@H](C[C@H]1CCNC1=O)C(=O)C(=O)NC1CC1)OCc1cccc(Cl)c1	human rhinovirus 51	viral replication	WI-38			EC90	350 nM
CC1(CCCCCCCCCCCCOCCCOP(=O)(O)CO[C@H](CO)Cn2ccc(N)nc2=O)COC1	human betaherpesvirus 5	cytopathic effect	AD169		relative to: CC50 over EC50	selectivity index	1820
C[C@@H]1C[C@H](Nc2ccccc2)c2cc(F)ccc2N1C(=O)c1ccc(Br)cc1	Aedes albopictus			1 µM, second-instar larvae		logit mortality	0.61
CNC1=C([N+](=O)[O-])C2(C(=O)Nc3ccccc32)C2=C(CCCC2=O)O1 (stereo not shown)	Salmonella enterica	microbial growth	TYPHIMURIUM	250 µg/mL, 24 h		inhibition	73.7%
CCCCCCCCCC1CC2CCCC3CC(CCCCCCCCC)NC(=N1)N23 (stereo not shown)	Candida krusei	fungal growth	ATCC 6258			IC50	1870 nM
COc1ccc(NC(=O)N2CCCN3CCC(c4ccc(C#Cc5cnccn5)cc4)C3C2)cc1 (stereo not shown)	Toxoplasma gondii		HFF, RH (type I)	concentration not given		growth inhibition	inactive
C[C@@H]1C(=O)O[C@@H](C)/C=C/C=C\[C@@H](C)[C@@H]2C=C[C@@H]3C[C@@]4(C)O[C@H]4[C@@H](C)[C@H]3[C@@H]2C(=O)C(Cl)(Cl)C1=O	Staphylococcus aureus		MSSA and MRSA clinical isolates			MIC50	0.05 µg/mL (≈ 0.101 µM)
O=C(CCNC(=O)c1ccsc1)Nc1cccc(Oc2ccc(Cl)cc2)c1	hepatitis B virus	Dane particle release, inhibitor	HepG2-hNTCP-C4	added day 9, read day 11		IC50	11 nM
Cc1ccc(NC(=O)N2CCCN3CCC(c4ccc(C#CC5CCC(F)(F)CC5)cc4)C3C2)cc1 (stereo not shown)	Toxoplasma gondii	parasite growth	HFF, RH type I luciferase			EC90	3890 ± 320 nM
CC(C)C[C@H](NC(=O)CNC(=O)c1cc(Cl)ccc1Cl)B(O)O	Babesia divergens		erythrocyte culture	400 nM, 48 h		reduction of parasitemia	64%
CCc1ccc(C(=O)N2c3ccc(F)cc3[C@@H](Nc3ccccc3)C[C@H]2C)cc1	Aedes albopictus			1 µM, second-instar larvae		logit mortality	1.03
O=C(Nc1ccc2c(c1)CN(c1ccc(Br)cc1)C2=O)N1CCN(c2ccc(F)cc2)CC1	Trypanosoma brucei brucei	cell growth, resazurin	Squib 427	3 days		IC50	400 nM
COC(=O)/C=C/c1ccc(OCCNS(=O)(=O)c2ccc(NC(C)=O)cc2)c(OC)c1	tobacco mosaic virus	half-leaf method	tobacco	500 µg/mL		inactivation activity	87.3 ± 2.5%
CCCCn1c2ccccc2c2ccnc(-c3ccccc3Cl)c21	Echinococcus granulosus	eosin staining	sensu stricto protoscoleces	40 µM, 48 h, 10% fetal bovine serum		viability	62.8 ± 5.9%
CCCCCCCCCC1CC2CCC3CC(CCCCCCCCC)NC(=N1)N23 (stereo not shown)	Candida krusei	fungal growth	ATCC 6258			IC50	2470 nM
CC(=O)OC[C@H]1O[C@@H]([Se]C(C)=O)[C@H](OC(C)=O)[C@@H](OC(C)=O)[C@@H]1OC(C)=O	Trypanosoma brucei brucei	flow cytometry	bloodstream form, hGrx1-roGFP2	EC50, 1 h	relative to: diamide 500 µM maximum and minimum oxidation	biosensor oxidation	49%
O=C(N[C@@H](CC1CCCCC1)C(=O)N[C@@H](C[C@H]1CCNC1=O)C(=O)C(=O)NC1CC1)OCc1ccccc1	human rhinovirus 1B	viral replication	WI-38	37 °C		EC50	150 ± 70 nM
O=C1NCCCN2CCC(c3ccc(C#Cc4ccccc4)cc3)C12 (stereo not shown)	Toxoplasma gondii		HFF, RH (type I)	concentration not given		growth inhibition	inactive
N=C(NO)NN=Cc1nccc2ccccc12	human mastadenovirus C	plaque reduction	A549, McEwen			inhibitory concentration	< 100 µM
Cc1cc(O)cc2c1C(=O)c1c(cc3oc(=O)cc(-c4ccc(Cl)cc4)c3c1O)C2=O	Bacillus cereus		MTCC 1306	100 µg/disc		zone of inhibition	8 mm
C#CCN1CCC23C(=C(C(=O)OC)CC(C(=O)OC)C12)Nc1ccccc13 (stereo not shown)	hepatitis B virus	rcDNA level	HuH7-NTCP	5 µM		inhibition	> 60%
Cc1cc(O)c2c(c1)C(=O)c1cc3oc(=O)cc(C)c3c(O)c1C2=O	Bacillus cereus		MTCC 1306	100 µg/disc		zone of inhibition	< 8 mm
Cc1ncccc1-c1ccc(C(=O)N2CC[C@H](C(=O)Nc3cc(F)c(F)c(F)c3)C2)[nH]1	hepatitis B virus	measured: intracellular HBV DNA	HepG2.2.15	1 µM, 144 h	relative to: vehicle	HBV DNA remaining	31%

For quick reference, copied from above:
Structure (SMILES)	organism	assay	test system	setting	scale	quantity	value
CCN(CC)CC#CCNc1ccnc2cc(Cl)ccc12	Plasmodium falciparum	schizont maturation	field isolates	Albumax medium	relative to: field isolates over 3D7	IC50 ratio	~2 fold
CCc1cccc2c(C(=O)COC(=O)C34CC5CC(CC(Br)(C5)C3)C4)c[nH]c12	Oryza sativa		Nipponbare	1 µM, 40-day-old plants		tiller number	increased
O=C(Nc1ccc2c(c1)CN(c1ccc(Cl)cc1)C2=O)N1CC[C@H](O)C1	Trypanosoma brucei brucei	cell growth, resazurin	Squib 427	concentration not given, 3 days		growth inhibition	inactive
C[C@@H]1C[C@H](Nc2ccccc2)c2cc(F)ccc2N1C(=O)c1ccc(Cl)c(F)c1	Aedes albopictus			1 µM, second-instar larvae		logit mortality	1.06
CC[C@@H](C)[C@@H](NC(=O)[C@@H](C)NC(=O)[C@@H](CCCCN)NC(=O)[C@@H](CC(C)C)NC(=O)[C@@H](CC(C)C)NC(=O)[C@H](NC(=O)[C@@H](CCCCN)NC(=O)[C@@H](CC(C)C)NC(=O)[C@@H](C)NC(=O)[C@@H](CCCCN)NC(=O)[C@@H](CCCCN)NC(=O)[C@@H](CCCCN)NC(=O)[C@@H](C)NC(=O)[C@@H](CCCCN)NC(=O)[C@@H](CO)NC(=O)[C@@H](Cc1ccccc1)NC(=O)[C@H](NC(=O)[C@@H](CCCCN)NC(=O)[C@@H](CC(C)C)NC(=O)[C@@H](Cc1ccccc1)NC(=O)[C@@H](CO)NC(=O)[C@@H](CCCCN)NC(=O)[C@@H](Cc1c[nH]c2ccccc12)NC(=O)[C@@H](CCCCN)NC(C)=O)[C@H](C)O)[C@H](C)O)C(=O)N[C@H](CO)C(=O)N[C@H](CCCCN)C(N)=O	Acinetobacter baumannii		11 isolates			MIC geometric mean	0.8 µM (≈ 2.45 µg/mL)
O=C(C1CCN(c2nnnn2-c2ccccc2)CC1)N1CCCc2ccccc21	Plasmodium falciparum	parasite growth, SYBR Green	3D7	72 h, blood stage		IC50	1800 nM
O=C[C@H](C[C@H]1CCNC1=O)NC(=O)[C@H](Cc1ccccc1)NC(=O)OCc1ccccc1	human rhinovirus 1B	viral replication	WI-38	37 °C		EC50	950 ± 490 nM
Cc1ccc(S(=O)(=O)N(CCc2nnc(S)o2)c2ccc(Cl)cc2)cc1	Colletotrichum capsici	cup plate method		100 µg/mL	relative to: fluconazole	relative inhibition	206%
